{"data": "Results collected from several papers", "note": "Every numbered part comes from another study and shows a few of its results, in no order. “And” joins repeats or separate records; there may be more than shown.", "UniProt P35916, sequence (whole entry, looked up)": "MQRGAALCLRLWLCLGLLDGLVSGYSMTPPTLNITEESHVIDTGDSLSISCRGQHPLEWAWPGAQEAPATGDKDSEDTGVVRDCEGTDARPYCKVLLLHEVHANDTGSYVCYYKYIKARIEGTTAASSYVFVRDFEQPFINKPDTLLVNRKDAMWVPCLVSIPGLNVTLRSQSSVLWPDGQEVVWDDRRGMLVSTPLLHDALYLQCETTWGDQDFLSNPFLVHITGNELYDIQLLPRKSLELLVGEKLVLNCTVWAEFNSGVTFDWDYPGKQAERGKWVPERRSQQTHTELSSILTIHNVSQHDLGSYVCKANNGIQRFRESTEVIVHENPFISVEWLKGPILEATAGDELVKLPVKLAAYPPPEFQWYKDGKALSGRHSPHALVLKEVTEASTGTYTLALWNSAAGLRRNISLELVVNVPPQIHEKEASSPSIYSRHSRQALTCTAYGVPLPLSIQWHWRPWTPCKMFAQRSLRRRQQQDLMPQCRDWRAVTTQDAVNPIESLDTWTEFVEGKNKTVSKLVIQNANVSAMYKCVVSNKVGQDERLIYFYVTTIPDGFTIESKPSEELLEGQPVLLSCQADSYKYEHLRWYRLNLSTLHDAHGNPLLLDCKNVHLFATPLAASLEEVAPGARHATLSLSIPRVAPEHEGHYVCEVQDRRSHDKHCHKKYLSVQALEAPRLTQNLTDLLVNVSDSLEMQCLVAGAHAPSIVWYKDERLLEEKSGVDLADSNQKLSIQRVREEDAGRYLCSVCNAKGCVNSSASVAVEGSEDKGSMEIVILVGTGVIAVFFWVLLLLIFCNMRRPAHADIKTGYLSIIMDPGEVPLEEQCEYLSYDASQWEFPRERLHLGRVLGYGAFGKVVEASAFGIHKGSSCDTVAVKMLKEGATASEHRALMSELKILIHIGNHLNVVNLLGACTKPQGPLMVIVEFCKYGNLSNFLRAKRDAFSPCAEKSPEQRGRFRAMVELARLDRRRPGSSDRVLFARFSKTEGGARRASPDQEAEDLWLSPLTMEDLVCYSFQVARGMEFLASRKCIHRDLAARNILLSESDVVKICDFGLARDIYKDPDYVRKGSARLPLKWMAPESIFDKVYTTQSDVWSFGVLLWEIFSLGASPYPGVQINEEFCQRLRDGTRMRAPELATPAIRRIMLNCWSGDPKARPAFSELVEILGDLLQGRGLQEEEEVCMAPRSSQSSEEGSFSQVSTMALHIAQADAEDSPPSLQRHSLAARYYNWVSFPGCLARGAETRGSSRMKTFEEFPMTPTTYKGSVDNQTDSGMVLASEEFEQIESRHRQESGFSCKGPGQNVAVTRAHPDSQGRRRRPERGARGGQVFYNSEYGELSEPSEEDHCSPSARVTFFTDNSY", "UniProt Q12866, sequence (whole entry, looked up)": "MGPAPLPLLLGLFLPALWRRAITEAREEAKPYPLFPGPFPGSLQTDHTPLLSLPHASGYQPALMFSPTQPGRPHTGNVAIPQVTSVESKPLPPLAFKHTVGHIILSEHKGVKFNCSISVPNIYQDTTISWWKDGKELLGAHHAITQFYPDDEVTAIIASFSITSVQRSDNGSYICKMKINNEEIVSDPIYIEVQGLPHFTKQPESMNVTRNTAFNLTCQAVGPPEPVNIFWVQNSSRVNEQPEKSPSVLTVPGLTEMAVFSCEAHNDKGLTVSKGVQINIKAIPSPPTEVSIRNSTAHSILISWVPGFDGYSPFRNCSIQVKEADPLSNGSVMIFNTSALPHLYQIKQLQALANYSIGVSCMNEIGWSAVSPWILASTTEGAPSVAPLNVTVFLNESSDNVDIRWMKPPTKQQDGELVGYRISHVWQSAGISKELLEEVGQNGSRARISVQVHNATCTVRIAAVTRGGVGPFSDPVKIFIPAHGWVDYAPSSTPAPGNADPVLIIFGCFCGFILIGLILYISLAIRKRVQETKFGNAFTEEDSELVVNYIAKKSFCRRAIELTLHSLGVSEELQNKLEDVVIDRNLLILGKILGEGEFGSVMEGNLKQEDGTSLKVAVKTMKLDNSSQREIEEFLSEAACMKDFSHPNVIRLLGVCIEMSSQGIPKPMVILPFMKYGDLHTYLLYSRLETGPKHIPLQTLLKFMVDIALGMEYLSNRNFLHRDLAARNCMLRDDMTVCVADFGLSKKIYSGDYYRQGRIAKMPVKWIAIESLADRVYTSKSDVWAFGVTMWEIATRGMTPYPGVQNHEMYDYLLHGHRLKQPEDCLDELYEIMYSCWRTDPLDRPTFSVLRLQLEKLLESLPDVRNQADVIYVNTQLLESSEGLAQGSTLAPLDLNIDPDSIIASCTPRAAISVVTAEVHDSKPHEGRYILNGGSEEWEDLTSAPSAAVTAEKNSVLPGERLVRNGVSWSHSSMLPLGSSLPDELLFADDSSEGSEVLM"}
{"data": "Sample 1", "Compound": "CCOc1ccc(Nc2c3c(nc4ccccc24)CCC3)cc1", "organism": "Leishmania donovani", "read-out": "parasite killing", "strain": "DD8", "sample": "intracellular amastigotes"}
{"tested at": "0.8 µM", "time": "48 h", "inhibition": "36% and 39% and 33%"}
{"tested at": "2 µM", "time": "24 h", "inhibition": "22% and 24% and 19%"}
{"tested at": "0.4 µM", "time": "48 h", "inhibition": "25% and 20% and 38%"}
{"data": "Sample 2", "Compound": "CS(=O)(=O)NCC[C@H](NC(=O)c1cncc2c1cnn2-c1ccc(F)cc1)c1ccnc(S(C)(=O)=O)c1", "method": "competition with immobilised ligand", "tested at": "1 µM"}
{"target": "MAK (Homo sapiens, UniProt P20794)", "read-out": "binding", "remaining binding": "100%"}
{"target": "EPHB6 (Homo sapiens, UniProt O15197)", "read-out": "cell-free assay", "remaining binding": "100%"}
{"target": "STK35 (Homo sapiens, UniProt Q8TDR2)", "read-out": "cell-free assay", "remaining binding": "100%"}
{"target": "BRAF (Homo sapiens, UniProt P15056, V600E)", "read-out": "cell-free assay", "remaining binding": "100%"}
{"target": "CSF1R (Homo sapiens, UniProt P07333)", "read-out": "cell-free assay", "remaining binding": "100%"}
{"target": "PIK3CA (Homo sapiens, UniProt P42336, E545A)", "read-out": "cell-free assay", "remaining binding": "100%"}
{"target": "CSNK1G1 (Homo sapiens, UniProt Q9HCP0)", "read-out": "cell-free assay", "remaining binding": "91%"}
{"target": "MERTK (Homo sapiens, UniProt Q12866)", "read-out": "cell-free assay", "remaining binding": "100%"}
{"target": "Ribosomal protein S6 kinase alpha-5, C-terminal kinase domain (RPS6KA5, Homo sapiens, UniProt O75582)", "read-out": "cell-free assay", "remaining binding": "100%"}
{"target": "PIK3CB (Homo sapiens, UniProt P42338)", "read-out": "cell-free assay", "remaining binding": "93%"}
{"target": "FES (Homo sapiens, UniProt P07332)", "read-out": "cell-free assay", "remaining binding": "100%"}
{"target": "EPHA2 (Homo sapiens, UniProt P29317)", "read-out": "cell-free assay", "remaining binding": "100%"}
{"target": "EPHB3 (Homo sapiens, UniProt P54753)", "read-out": "cell-free assay", "remaining binding": "100%"}
{"target": "FLT4 (Homo sapiens, UniProt P35916)", "read-out": "cell-free assay", "remaining binding": "100%"}
{"target": "CSNK1G2 (Homo sapiens, UniProt P78368)", "read-out": "cell-free assay", "remaining binding": "89%"}
{"target": "Tyrosine-protein kinase ABL1, non-phosphorylated (ABL1, Homo sapiens, UniProt P00519, T315I)", "read-out": "cell-free assay", "remaining binding": "93%"}
{"target": "SGK1 (Homo sapiens, UniProt O00141)", "read-out": "cell-free assay", "remaining binding": "100%"}
{"data": "Sample 3", "target": "RING finger protein unkempt homolog, zinc fingers 1-6, GST-SBP tag (UNK, Homo sapiens, UniProt Q9C0B0, residues 30-357)", "method": "RNA Bind-n-Seq", "form": "RNA", "sample": "in vitro", "tested at": "not given", "setting": "RNA with constant flanks, human and mouse sites, ends assumed", "baseline": "input RNA pool", "direction": "higher = stronger binding", "Residues (chain)": "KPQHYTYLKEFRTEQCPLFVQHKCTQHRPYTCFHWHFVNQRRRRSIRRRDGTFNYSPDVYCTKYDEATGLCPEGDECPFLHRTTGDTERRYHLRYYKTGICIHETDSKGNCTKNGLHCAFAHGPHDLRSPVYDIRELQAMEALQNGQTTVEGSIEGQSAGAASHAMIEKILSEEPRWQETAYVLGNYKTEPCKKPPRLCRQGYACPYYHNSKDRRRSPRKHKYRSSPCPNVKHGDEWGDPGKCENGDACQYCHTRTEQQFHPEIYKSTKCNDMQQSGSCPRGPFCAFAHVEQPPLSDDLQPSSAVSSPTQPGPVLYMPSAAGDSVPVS"}
{"Oligonucleotide": "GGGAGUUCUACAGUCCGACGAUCAGAAAUGCAUAUACAAUGGUUUUGCAUAAACAUGGAGAAAAGCUCUACACUGGACUAAGAGAAGUUGUUACUGAACAUCUCAUAAAUAAGGUGCGAGAAGAUGUACUAAAUUCAUUGAAUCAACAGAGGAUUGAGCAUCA", "bound/input enrichment [ratio]": 0.0981}
{"Oligonucleotide": "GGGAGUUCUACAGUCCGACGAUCCAACCACUGACUGUGGGCUCUUGACUUUCCUAAGCAAUAUCGUGAUGGAGAAAAGUCAUUAUAACUUGAGAUUUGGUCUCUAUGGGAACAGACAAUGGCCCAUUCAGGCCUGCUGCUGACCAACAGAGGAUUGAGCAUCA", "bound/input enrichment [ratio]": 0.117}
{"Oligonucleotide": "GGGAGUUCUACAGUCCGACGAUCUUAGCCUUUUAAUUGAUCGAGGUGCUGAAGUAGAUCAUUGUGAUAAAGAUGGCAUGACUCCACUGCUGGUAGCUGCCUAUGAAGGACAUGUUGAUGUGGUUGACUUGCUUCUAGAAGGGGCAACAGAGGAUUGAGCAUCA", "bound/input enrichment [ratio]": 1.67}
{"Oligonucleotide": "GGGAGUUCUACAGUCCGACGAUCUAUGGUGUAUUCCAGUUUAAAGUGGAUUACAACCGGCUAGGCUACACACACCUGUACUCUUCCACUCAGGUAUCCGUGCGGCCACUCCAGCACACGCAGUAUGAGCGCUUCAUCCCCUCGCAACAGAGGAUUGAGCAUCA", "bound/input enrichment [ratio]": 0.214}
{"Oligonucleotide": "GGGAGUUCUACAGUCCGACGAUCUGGAGACGGCAGCUGGGCCGGCUUGGCCUCCAUUGAGAUCCGGAGGAUCCAAGGACUGUGAGGCUACAAUGUUGUCAAGACUUUUCCGGAUGCAUGGCCUCUUCGUGGCCUCCCACCCCUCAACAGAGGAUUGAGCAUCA", "bound/input enrichment [ratio]": 0.0877}
{"Oligonucleotide": "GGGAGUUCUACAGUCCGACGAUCAGAUUAGGCCAUGAUCCCUACAGACUAACUCCUGAUCCCUAUAGGAUGUCACCUAGACCCUACAGGAUAGCACCCAGGUCCUAUAGAAUAGCACCCAGGCCAUAUAGGUUAGCACCUAGACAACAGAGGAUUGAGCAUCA", "bound/input enrichment [ratio]": 5.99}
{"Oligonucleotide": "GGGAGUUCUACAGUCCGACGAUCCCUACUCCCCAUCACCCAAUCCCUAUCAGACGGCCAUGUAUCCAAUCAGAAGUGCCUAUCCCCAGCAGAAUCUGUAUGCCCAGGGAGCCUACUACACACAACCUGUGUAUGCUGCCCAGCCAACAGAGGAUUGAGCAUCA", "bound/input enrichment [ratio]": 0.223}
{"Oligonucleotide": "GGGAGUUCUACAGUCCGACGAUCGAAUGCAGUUUUCCUUGAGAUACCUGUUUUAAAAGGUUUUUCAGACAAUUUUGCAGAAAGGUGCAUUGAUUCUUAAAUUCUCUCUGUUGAGAGCAUUUCAGCCAGAGGACUUUGGAACUGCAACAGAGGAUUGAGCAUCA", "bound/input enrichment [ratio]": 0.189}
{"data": "Mixed results", "POLQ ATPase domain": "DNA polymerase theta, ATPase domain (POLQ, Homo sapiens, UniProt O75417)", "UniProt O75417, sequence (whole entry, unmodified, looked up)": "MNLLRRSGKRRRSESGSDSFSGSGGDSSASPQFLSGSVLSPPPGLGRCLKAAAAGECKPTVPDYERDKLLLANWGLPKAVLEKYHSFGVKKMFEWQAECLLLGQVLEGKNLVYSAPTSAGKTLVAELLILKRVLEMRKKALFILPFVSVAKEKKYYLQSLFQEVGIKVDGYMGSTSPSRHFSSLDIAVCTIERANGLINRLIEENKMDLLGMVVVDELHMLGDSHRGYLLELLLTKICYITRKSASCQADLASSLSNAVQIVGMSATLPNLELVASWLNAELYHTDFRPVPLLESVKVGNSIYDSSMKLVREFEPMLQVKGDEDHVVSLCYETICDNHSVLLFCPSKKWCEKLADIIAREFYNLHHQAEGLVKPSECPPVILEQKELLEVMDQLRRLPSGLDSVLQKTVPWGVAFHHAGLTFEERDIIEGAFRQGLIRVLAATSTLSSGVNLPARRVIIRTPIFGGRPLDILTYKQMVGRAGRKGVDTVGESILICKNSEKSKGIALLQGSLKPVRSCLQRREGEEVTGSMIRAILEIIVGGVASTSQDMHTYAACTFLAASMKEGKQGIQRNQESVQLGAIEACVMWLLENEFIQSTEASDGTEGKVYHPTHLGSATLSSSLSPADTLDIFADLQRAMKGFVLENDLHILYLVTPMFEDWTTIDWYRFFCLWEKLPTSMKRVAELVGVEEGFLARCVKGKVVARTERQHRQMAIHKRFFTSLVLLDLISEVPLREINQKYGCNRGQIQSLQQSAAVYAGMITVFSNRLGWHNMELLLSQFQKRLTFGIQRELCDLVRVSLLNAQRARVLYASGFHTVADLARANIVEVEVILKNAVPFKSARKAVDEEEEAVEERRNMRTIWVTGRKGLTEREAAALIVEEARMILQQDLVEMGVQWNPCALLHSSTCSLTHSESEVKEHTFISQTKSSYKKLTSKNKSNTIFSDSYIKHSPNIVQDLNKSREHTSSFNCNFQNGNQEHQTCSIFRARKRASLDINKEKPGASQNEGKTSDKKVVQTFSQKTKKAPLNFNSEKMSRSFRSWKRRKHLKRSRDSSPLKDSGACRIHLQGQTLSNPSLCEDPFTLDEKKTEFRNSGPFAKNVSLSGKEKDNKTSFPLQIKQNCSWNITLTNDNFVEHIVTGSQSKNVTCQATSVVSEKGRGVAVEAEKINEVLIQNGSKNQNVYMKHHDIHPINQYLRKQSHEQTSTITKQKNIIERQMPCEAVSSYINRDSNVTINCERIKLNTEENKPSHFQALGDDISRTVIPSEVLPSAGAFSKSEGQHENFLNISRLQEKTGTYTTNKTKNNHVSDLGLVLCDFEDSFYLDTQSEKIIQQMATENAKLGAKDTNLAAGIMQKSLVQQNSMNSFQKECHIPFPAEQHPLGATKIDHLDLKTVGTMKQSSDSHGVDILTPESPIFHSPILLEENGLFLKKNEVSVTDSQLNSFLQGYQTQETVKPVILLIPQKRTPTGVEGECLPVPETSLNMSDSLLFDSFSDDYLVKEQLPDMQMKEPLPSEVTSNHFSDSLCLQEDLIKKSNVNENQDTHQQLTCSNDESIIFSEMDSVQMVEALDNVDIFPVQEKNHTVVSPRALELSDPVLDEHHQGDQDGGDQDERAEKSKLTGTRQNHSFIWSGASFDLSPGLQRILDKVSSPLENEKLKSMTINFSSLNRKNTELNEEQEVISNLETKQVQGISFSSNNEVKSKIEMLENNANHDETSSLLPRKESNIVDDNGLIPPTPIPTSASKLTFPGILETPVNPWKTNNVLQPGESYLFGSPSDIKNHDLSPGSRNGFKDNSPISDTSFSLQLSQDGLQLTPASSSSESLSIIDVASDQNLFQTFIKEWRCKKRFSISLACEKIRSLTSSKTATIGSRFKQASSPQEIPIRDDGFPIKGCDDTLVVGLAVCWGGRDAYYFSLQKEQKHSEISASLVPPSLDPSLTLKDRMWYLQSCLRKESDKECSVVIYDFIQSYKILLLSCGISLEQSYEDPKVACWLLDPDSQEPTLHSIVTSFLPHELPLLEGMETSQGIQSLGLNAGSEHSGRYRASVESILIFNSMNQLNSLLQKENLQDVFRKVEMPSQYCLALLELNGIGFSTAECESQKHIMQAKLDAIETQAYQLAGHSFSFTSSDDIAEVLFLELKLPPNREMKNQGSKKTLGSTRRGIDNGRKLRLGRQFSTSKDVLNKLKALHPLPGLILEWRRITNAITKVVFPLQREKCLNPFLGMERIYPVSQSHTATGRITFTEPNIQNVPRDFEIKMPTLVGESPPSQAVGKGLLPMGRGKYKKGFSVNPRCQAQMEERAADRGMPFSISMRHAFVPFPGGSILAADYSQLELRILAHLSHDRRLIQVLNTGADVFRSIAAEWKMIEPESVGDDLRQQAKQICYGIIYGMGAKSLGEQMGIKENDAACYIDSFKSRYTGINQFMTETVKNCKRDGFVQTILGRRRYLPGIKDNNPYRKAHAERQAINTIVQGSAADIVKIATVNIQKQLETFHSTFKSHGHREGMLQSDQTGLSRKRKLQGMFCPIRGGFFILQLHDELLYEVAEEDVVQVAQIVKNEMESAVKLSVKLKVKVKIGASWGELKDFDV"}
{"SMILES": "CC(CCCCC(=O)Nc1ccc(C(F)(F)F)cc1)NCCc1cnc[nH]1 (centres unmarked)", "target or system": "Sarcocystis neurona", "assay": "parasite growth", "conditions": "concentration not given, first screen", "scale": "baseline: untreated", "quantity": "log2 fold change", "result": 0.076}
{"SMILES": "O=C(COc1ccc(Cl)cc1)NC1CCC(NC(=O)COc2ccc(Cl)cc2)CC1 (centres unmarked)", "target or system": "HEK293T ATF4-firefly luciferase reporter", "assay": "integrated stress response, item: ATF4", "conditions": "concentration not given", "scale": "baseline: DMSO", "quantity": "reporter signal", "result": "76.7% and 65.6% and 76.4% and 67% and 64.3% and 72.6%"}
{"SMILES": "O=C(c1ccc(C(=O)N2CCC(N3CCCC3)CC2)c(Nc2ccccc2)c1)N1CCC(N2CCCC2)CC1", "target or system": "mouse MPNST tumor cells", "assay": "high-content immunofluorescence imaging, item: nuclear SOX9", "conditions": "10 µM, 12 h, mean of 2 replicates", "scale": "baseline: DMSO control, higher = more nuclear SOX9", "quantity": "nuclear SOX9 intensity", "result": "104 % of DMSO"}
{"SMILES": "Cc1ccc(S(=O)(=O)NC2c3cccc4cccc(c34)C2Sc2n[nH]c(N)n2)cc1 (centres unmarked)", "test system": "human, microsomes or S9", "conditions": "2 µM, 0.5 h", "quantity": "remaining compound", "result": "21.4%"}
{"SMILES": "Nc1ccc(S(=O)(=O)Nc2ccc(Cl)nn2)cc1", "target or system": "POLQ ATPase domain", "assay": "enzyme activity, inhibitor", "conditions": "77 µM", "scale": "baseline: untreated", "quantity": "remaining activity", "result": "97.7%"}
{"SMILES": "C#CCN[C@@H]1CCc2ccccc21", "target or system": "HaCaT", "conditions": "100 µM, 60 h", "quantity": "viability", "result": "141%"}
{"SMILES": "COc1cc(C(=O)OCCCN2CCCN(CCCOC(=O)c3cc(OC)c(OC)c(OC)c3)CC2)cc(OC)c1OC", "test system": "naive mice, mixed sexes", "conditions": "intrathecal, 100 nmol, before dosing", "quantity": "rotarod fall latency", "result": "62 s and 72 s and 89 s and 69 s and 77 s and 79 s"}
{"SMILES": "CC(C)n1cnc(-c2ccc(F)cc2)c1-c1ncc(C(=O)Nc2ccc(N3CCN(C)CC3)cc2)[nH]1", "assay": "phase 2a trial", "test system": "idiopathic pulmonary fibrosis patients", "conditions": "oral, dose not given, CK-MB increased, grade 5, all arms", "quantity": "patients with TEAE", "result": "0%"}
{"SMILES": "N=C(N=C(N)N)N1CCOCC1", "target or system": "POLQ ATPase domain", "assay": "enzyme activity, inhibitor", "conditions": "77 µM", "scale": "baseline: untreated", "quantity": "remaining activity", "result": "93.6%"}
{"SMILES": "O=C1CCC(N2Cc3cc(C4CCN(Cc5ccccc5)CC4)ccc3C2=O)C(=O)N1 (centres unmarked)", "target or system": "human Treg:Teff co-culture", "conditions": "concentration not given, Treg suppression", "quantity": "proliferating CD8+ Teff cells", "result": "87.5% and 64.5% and 86.9% and 45% and 89.6% and 62.5%"}
{"note": "A few entries again (mixed results):"}
{"SMILES": "COc1cc(C(=O)OCCCN2CCCN(CCCOC(=O)c3cc(OC)c(OC)c(OC)c3)CC2)cc(OC)c1OC", "test system": "naive mice, mixed sexes", "conditions": "intrathecal, 100 nmol, before dosing", "quantity": "rotarod fall latency", "result": "62 s and 72 s and 89 s and 69 s and 77 s and 79 s"}
{"SMILES": "CC(C)n1cnc(-c2ccc(F)cc2)c1-c1ncc(C(=O)Nc2ccc(N3CCN(C)CC3)cc2)[nH]1", "assay": "phase 2a trial", "test system": "idiopathic pulmonary fibrosis patients", "conditions": "oral, dose not given, CK-MB increased, grade 5, all arms", "quantity": "patients with TEAE", "result": "0%"}
